Experimental data from different studies.
Parts stem from different laboratories: compare values within a part only. Positions count from the first letter of the parent shown.

Study 1
Target: Ras GTPase-activating protein-binding protein 1, C-terminal RGG region (G3BP1, Homo sapiens, UniProt Q13283)
UniProt Q13283, sequence (whole entry, looked up): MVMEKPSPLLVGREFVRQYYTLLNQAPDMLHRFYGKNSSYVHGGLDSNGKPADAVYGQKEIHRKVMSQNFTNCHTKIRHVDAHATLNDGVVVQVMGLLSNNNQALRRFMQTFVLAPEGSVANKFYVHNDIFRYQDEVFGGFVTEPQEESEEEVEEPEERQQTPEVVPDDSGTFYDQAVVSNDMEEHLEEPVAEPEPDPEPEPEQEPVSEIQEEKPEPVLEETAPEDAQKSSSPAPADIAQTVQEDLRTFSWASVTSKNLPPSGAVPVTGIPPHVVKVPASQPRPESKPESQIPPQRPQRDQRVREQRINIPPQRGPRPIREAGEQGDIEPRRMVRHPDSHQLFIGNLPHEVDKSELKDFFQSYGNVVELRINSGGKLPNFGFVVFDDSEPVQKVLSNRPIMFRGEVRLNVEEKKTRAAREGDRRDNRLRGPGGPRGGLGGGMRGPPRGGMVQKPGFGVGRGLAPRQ
Method: RNA Bind-n-Seq
Form: RNA
Sample: in vitro
Tested at: 1 µM
Notes: whole 134-nt RNA, ends assumed
Together with: 150 mM KCl
Reference: input library
Direction: higher = stronger binding
Quantity: log2 enrichment
All sequences stand within: GGGAGUUCUACAGUCCGACGAUC … UGGAAUUCUCGGGUGUCAAGG
CUCAAGUCCUGUGCUACACAUCGUAUGUACCGAAUCGGGGCGGCGGGGCGGGGAAAGUAUUAUGUUACGCCGUUCGGAUCUGCACUUCCA: 0.309
CUCAAGUCCUGUGCUACACAUCGUAUGUACCGAAUCGGAAGGGAAGGGAAGGGAAAGUAUUAUGUUACGCCGUUCGGAUCUGCACUUCCA: 0.246
UCGUUCCCCCCGCCACGAGAAGAAGAAGAAGGUCCGUAAAUACUGGGACGUGCCACCCCCAGGCUUUGAGCACAUCACCCCAAUGCAGUA: 0.0274
UCCUCAAGUCCUGUGCUACACAUCGUAUGUACCGAAUCGGUGGUGGGUGGGAAAGUAUUAUGUUACGCCGUUCGGAUCUGCACUUCCAGC: 0.084
AGUCCUGUGCUACACAUCGUAUGUACCGAAUCGGGAAAAAGGGAAAAAAAGGGUGGGAAAGUAUUAUGUUACGCCGUUCGGAUCUGCACU: 0.858
AGUCCUGUGCUACACAUCGUAUGUACCGAAUCGGGGAAAAGGAAAAGGGGAAAAGGGAAAGUAUUAUGUUACGCCGUUCGGAUCUGCACU: -0.752
UUGACCGGAGCGGCCGUCACUUUGGUACAAUCCUCAAUUACCUGCGGGAUGGGUCUGUGCCACUGCCGGAGAGUACGAGAGAACUGGGGG: -1.47
UGGCCCUGGUGGCAUGCGGGGAGGAAGAGGUGGCCUCAUGGAUCGUGGUGGUCCCGGUGGAAUGUUCAGAGGUGGCGGUGGUGGAGACAG: 3.22
AAGUCCUGUGCUACACAUCGUAUGUACCGAAUCGGGUGGGUUUUUUUGGGUUUGGGAAAGUAUUAUGUUACGCCGUUCGGAUCUGCACUU: 0.00578
UGUGCUACACAUCGUAUGUACCGAAUCGGGGCCCCCCCGGGGCCCCCCCGGGGCCCCCCCGGAAAGUAUUAUGUUACGCCGUUCGGAUCU: -2.26
CAAGUCCUGUGCUACACAUCGUAUGUACCGAAUCGGGGAAGGGAAGGGGAAGGGGAAAGUAUUAUGUUACGCCGUUCGGAUCUGCACUUC: 2.85
AAGUCCUGUGCUACACAUCGUAUGUACCGAAUCGGCCCCGGGGCCCCGGGCCCCGGGAAAGUAUUAUGUUACGCCGUUCGGAUCUGCACU: -2.29
ACCAUGCAAAUGGGCAUCUUUGGGAAGUGGGGCAAGGGGGGGAUAGGGAGGGGGGUAACACUUUGGGAACAGGUGGUCCCAGGUCGUUUC: -1.12
AGUCCUGUGCUACACAUCGUAUGUACCGAAUCGGGGAAAAGGGAAAAGGGAAAAGGGGAAAGUAUUAUGUUACGCCGUUCGGAUCUGCAC: 0.799

Study 2
Target: RING finger protein unkempt homolog, zinc fingers 1-6, GST-SBP tag (UNK, Homo sapiens, UniProt Q9C0B0, residues 30-357)
Method: RNA Bind-n-Seq
Form: RNA
Sample: in vitro
Tested at: not given
Notes: RNA with constant flanks, human and mouse sites, ends assumed
Reference: input RNA pool
Direction: higher = stronger binding
Quantity: bound/input enrichment
All sequences stand within: GGGAGUUCUACAGUCCGACGAUC … CAACAGAGGAUUGAGCAUCA
Construct (chain): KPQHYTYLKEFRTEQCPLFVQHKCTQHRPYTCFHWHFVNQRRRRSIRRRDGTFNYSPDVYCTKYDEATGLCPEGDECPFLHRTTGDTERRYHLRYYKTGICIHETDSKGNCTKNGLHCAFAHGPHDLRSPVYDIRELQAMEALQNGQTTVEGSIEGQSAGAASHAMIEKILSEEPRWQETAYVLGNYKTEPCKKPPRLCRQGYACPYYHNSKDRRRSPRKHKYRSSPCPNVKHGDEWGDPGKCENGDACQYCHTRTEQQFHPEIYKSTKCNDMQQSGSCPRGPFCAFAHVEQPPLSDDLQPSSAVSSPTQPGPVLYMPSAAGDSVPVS
ACCACUGGGACACUUCCACCACCAACUUUGUCUGCCUAUCAGCAUUCAUCUACCUUUAGCAAUAGAAACUUUGCGACCACCUCACCUUUGGUGCUUCAAGAUUCAUCUUUUAACACUACA: 1.88 ratio
UGGUAAAAUUCUGCUCUCAUGAACAAGGAGUCACUUCAUAGAUUGUGAUCAACAGCUUGGUAGUACUUGCUGUAAGGGAUUGAGUUGCGCCAGACUUUGUCUCUUUAUUCUUGUGCAGUG: 0.179 ratio
CUCCCUCAACCAAUUUAUAGACACAUAGCAUCUUUCCUGUCAGUCUUCAAACUAGUAUUAAUAGGCUUAAUAAUUGUUGGCAAAGAUCCUUUUGCUUUUUUCGGCAUGCAAGCUCCUAGC: 116 ratio
AAAAGGAACUGGUGAUUUAAAAAAAGAAAAACACAAAAAGGGACCAUUGCAACCUUUUUAUUUUAUUUUCUUUUUUGGAGGGAGAAAGCUGAUGUCUUCUAUGCAUCCGAUUUCUUAAAC: 0.265 ratio
GACACGCUGCUGGGUGCCAUUAUUAUCCAUGAAGUUUAUGAAGAAGGAGCAGCAUGUAAAGAUGGAAGACUCUGGGCUGGAGAUCAGAUCUUAGAGGUGAAUGGAAUUGACUUGAGAAAG: 1.07 ratio
GAAAUGGUUCCAGAAAAACGAGCCUCAGCUGGCGAAUGCCUUCGGCAUCCUUGGUUGAAUUCUUAGCAAAUUCUACCAAUAUUGCAUUCUGAGCUAGCAAAUGUUCCCAGUACAUUGGAC: 0.183 ratio
GUUCACCAGAUCGAUGCAGUGCUCCUGUCUCAUCCUGAUCCACUCCACCUCGGUGCCCUCCCAUUCGCCGUGGGGAAGCUGGGUCUAAACUGUGCCAUCUAUGCAACAAUUCCUGUGUAU: 0.207 ratio
AUUGUCCCCUGGUGAGGGGAGCAGGGGAGAGAAAAUGGUAGCCAUUUUUACAUUGUUUUGUAUAGUAUUUAUUGAUUCAGGAAACAAACACAAAAUUCUGAAUAAAAUUACUUGGAAACU: 0.948 ratio
ACAGAAAAUAGCAGUGCAGUGCUACUCCAGUGGCAUGAAAAGGCCUUAGCUGUAGGAGGACUAGGCUCCAUUAUAAGAGUUCUUACAGCAAGAAAGACUGUUUAAAAAAAAAUCCUGUUA: 0.0876 ratio
GUCAACAGUUGUCUCAAUCCCAUUCUCUAUGCUUUCUUGGAUGAGAACUUCAAGGCCUGCUUUAGAAAGUUCUGCUGUGCUUCUGCCCUGCACCGGGAGAUGCAGGUUUCUGAUCGUGUG: 0.416 ratio
UGAAUUUUCAAUGUUUAAUCAGUAUGGAUCUGAUCUUCGCAUGAUCUUUUUUGUGAAUGCUAACACCAUUUUGCAGUUUUUUUUUUCUAUUUUAAACAUUUUUCUUUUCACUGCCGACCC: 1.03 ratio

Study 3
Target: CCNA2, cyclin fold, Cln2 fusion (human)
Method: yeast growth competition, sequencing
Sample: yeast
Notes: strong parent motif
Reference: not given
Direction: higher = stronger binding
Quantity: normalised enrichment score
Starting sequence: CENPC docking peptide (human); VKTKKRLNFDDKV
V13A: 5.73
V1A: 5.41
K5A: 1.27
K5A L7A: 0.627
F9L: 1.15
F9A: 1.47
N8A: 3.74
L7A: 0.866
K4A: 4.15
K5R F9L: 2.66

Study 4
Target: Prothrombin, mature alpha-thrombin (F2, Homo sapiens, UniProt P00734)
Method: aptamer microarray, sandwich
Form: DNA with 2'F-ANA
Sample: in vitro
Tested at: 200 nM
Notes: whole 15-mer aptamer, many near background
Together with: Cy3 exosite-II aptamer, 400 nM
Direction: higher = stronger binding
Quantity: mean fluorescence intensity
Sequence: GGTTGGTGTGGTTGG
2'F-ANA at 2 4 5 8 11 12 14: 99.6 a.u.
2'F-ANA at 1 2 3 7 8 9 10 11 14: 59.1 a.u.
2'F-ANA at 1 3 4 10 11 12 13 15: 67.4 a.u.
2'F-ANA at 1 3 4 12 13: 368 a.u.
2'F-ANA at 2 4 7 8 9 12 15: 584 a.u.
2'F-ANA at 1 3 5 6 7 8 9 10 12 13: 48.8 a.u.
2'F-ANA at 5 6 7 9 13 15: 52.2 a.u.
2'F-ANA at 1 4 6 8 10 11 13 14 15: 148 a.u.
2'F-ANA at 1 5 6 9 11 13 15: 50.2 a.u.
2'F-ANA at 1 2 3 4 7 9 11 12 13: 196 a.u.
2'F-ANA at 1 6 11 12 13 15: 244 a.u.
2'F-ANA at 1 2 3 4 5 6 8 11 13 15: 73.8 a.u.
2'F-ANA at 1 3 5 10 11 12 14 15: 44.3 a.u.
2'F-ANA at 4 6 7 9 10 11 12 13 14 15: 56.9 a.u.
2'F-ANA at 1 3 5 8 11 15: 57.5 a.u.
2'F-ANA at 1 2 3 4 14 15: 76.7 a.u.
2'F-ANA at 2 4 6 7 8 13 15: 226 a.u.
2'F-ANA at 2 3 5 6 8 10 13 14: 51.4 a.u.
2'F-ANA at 2 3 6 7 10 12: 430 a.u.
2'F-ANA at 1 2 3 4 6 9 12 13: 179 a.u.
